Published values gathered from unrelated publications.
Every numbered part comes from another study and shows a few of its results, in no order.

Study 1
Target: Ras GTPase-activating protein-binding protein 1, C-terminal RGG region (G3BP1, Homo sapiens, UniProt Q13283)
Sequence of UniProt Q13283 (whole entry, looked up): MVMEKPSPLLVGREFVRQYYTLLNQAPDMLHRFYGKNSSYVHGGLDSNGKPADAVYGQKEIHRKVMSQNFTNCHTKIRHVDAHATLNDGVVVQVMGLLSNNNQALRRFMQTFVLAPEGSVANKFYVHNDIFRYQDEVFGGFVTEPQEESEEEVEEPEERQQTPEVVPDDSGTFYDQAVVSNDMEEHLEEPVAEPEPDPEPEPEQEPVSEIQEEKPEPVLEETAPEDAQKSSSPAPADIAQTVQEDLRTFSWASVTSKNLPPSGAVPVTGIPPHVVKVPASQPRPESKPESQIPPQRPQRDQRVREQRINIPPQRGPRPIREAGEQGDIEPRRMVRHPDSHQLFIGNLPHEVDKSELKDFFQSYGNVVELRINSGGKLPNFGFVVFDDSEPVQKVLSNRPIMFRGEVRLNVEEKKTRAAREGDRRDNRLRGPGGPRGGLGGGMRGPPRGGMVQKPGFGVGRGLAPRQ
Method: RNA Bind-n-Seq
Form: RNA
Sample: in vitro
Concentration: 1 µM
Setting: whole 134-nt RNA, ends assumed
Together with: 150 mM KCl
Baseline: input library
Direction: higher = stronger binding
Endpoint: log2 enrichment
Constant ends, left off below: GGGAGUUCUACAGUCCGACGAUC … UGGAAUUCUCGGGUGUCAAGG
CUGUGCUACACAUCGUAUGUACCGAAUCGGUUUUUUUGGGUUUUUUUGGGUUUUUUUGGGGAAAGUAUUAUGUUACGCCGUUCGGAUCUG: -1.22
CCUCAAGUCCUGUGCUACACAUCGUAUGUACCGAAUCGGGAGGGAGGGGAGGGAAAGUAUUAUGUUACGCCGUUCGGAUCUGCACUUCCA: 2.63
CAAGUCCUGUGCUACACAUCGUAUGUACCGAAUCGGGGAAAGGGAAAGGAAAGGGGAAAGUAUUAUGUUACGCCGUUCGGAUCUGCACUU: 0.179
CACAGACAACACGCACCCACACAGACACAGAGGGAAGGGGUUGGGAUGGGGACAGGGUGCAAAGCAGGGCGGGGUAGGACCCCAGCCCCU: -0.174
UCCUGUGCUACACAUCGUAUGUACCGAAUCGGGGCCCCCCGGGCCCCCCGGCCCCCCGGGAAAGUAUUAUGUUACGCCGUUCGGAUCUGC: -0.718

Study 2
Target: Histone acetyltransferase KAT6A, winged helix 2, GST fusion (KAT6A, Homo sapiens, UniProt Q92794, residues 85-181)
Method: protein binding microarray
Form: double-stranded DNA, one strand shown
Sample: in vitro
Concentration: not given
Setting: 8-mer, flanks averaged, mean of 2 arrays, mostly near background
Baseline: not given
Direction: higher = stronger binding
Endpoint: E-score
Target sequence (chain): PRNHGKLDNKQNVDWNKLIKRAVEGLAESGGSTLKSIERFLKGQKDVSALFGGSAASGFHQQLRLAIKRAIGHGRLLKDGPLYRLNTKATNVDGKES
ACCCGCGA: 0.0943
GAGGAACC: 0.12
GGAGGGTA: -0.0184
AATAATAG: -0.116
GATCGTGC: 0.0395
ATATTTGG: -0.0489
CAATAGTA: -0.146
AACCTATC: -0.174

Study 3
Target: Interferon regulatory factor 5, full length, phosphomimetic (IRF5, Homo sapiens, UniProt Q13568-2, residues 1-514, K96S/S451D/S453D/S456D/S462D)
Method: protein-binding microarray
Form: double-stranded DNA, one strand shown
Sample: in vitro
Concentration: 250 nM
Setting: 60-bp whole probe
Together with: salmon DNA 0.4 mg/ml
Baseline: random background probes
Direction: higher = stronger binding
Endpoint: log fluorescence
Constant ends, left off below: GCCTAGCAC … GTCTTGATTCGCTTGACGCTGCTG
TTGCTTGTGTTTATTGTGACGTGCTAG: 0.457 z-score
GACGGCTCCCTTTTCCTGACGTGCTAG: -0.104 z-score
TCACCGTTTCTTCTAGAACTGTGCTAG: 0.667 z-score
GACGATTTCAGTATCGAAACGTGCTAG: 6.55 z-score
TTAGAACTGAGCTTCGATTAGTGCTAG: 0.683 z-score
TTAGTTTTCGGGACTGGGTTAGTGCTA: 3.9 z-score
TTAGGTTTCGACCATCGGTTAGTGCTA: 7 z-score
GACGATTTCAGTATCGCGACGTGCTAG: 1.89 z-score
GACGGTCTCGGTCGCGGGACGTGCTAG: -0.0224 z-score
TTATGTTTCGACTTTCGGTTAGTGCTA: 10.9 z-score
TTTCTTCTAGACTTCTCCATGTGCTAG: 4.7 z-score

Study 4
Target: Sal-like protein 4, full length isoform B (SALL4, Homo sapiens, UniProt Q9UJQ4-2, residues 1-616)
Method: universal PBM
Form: double-stranded DNA, one strand shown
Sample: in vitro
Concentration: not given
Setting: 8-mer, flanks averaged, mean of replicates
Direction: higher = stronger binding
Endpoint: E-score
Construct (chain): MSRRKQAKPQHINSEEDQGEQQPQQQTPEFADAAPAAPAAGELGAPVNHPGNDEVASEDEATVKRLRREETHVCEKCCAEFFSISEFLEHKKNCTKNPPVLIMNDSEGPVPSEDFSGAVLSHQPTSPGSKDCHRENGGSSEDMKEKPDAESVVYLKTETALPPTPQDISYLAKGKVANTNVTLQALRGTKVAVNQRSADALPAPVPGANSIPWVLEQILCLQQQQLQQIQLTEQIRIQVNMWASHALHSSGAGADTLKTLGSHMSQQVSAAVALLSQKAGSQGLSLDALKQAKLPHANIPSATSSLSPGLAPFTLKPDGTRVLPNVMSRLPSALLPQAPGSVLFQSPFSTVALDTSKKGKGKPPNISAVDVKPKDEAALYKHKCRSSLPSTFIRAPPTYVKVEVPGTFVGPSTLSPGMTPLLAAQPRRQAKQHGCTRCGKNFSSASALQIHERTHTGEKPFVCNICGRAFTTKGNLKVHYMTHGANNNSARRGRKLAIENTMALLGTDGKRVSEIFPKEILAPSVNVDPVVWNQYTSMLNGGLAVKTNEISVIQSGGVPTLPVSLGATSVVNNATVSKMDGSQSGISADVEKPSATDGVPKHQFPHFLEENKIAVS
ACGTCTCG: -0.0284
CGGACATC: -0.171
ACCCGATC: -0.0866
CGGGTACG: -0.267
ATTCAATG: 0.217
ACTCGCGG: -0.251
GCCAGAGC: -0.262
CTGCGTAC: -0.217
AAATCCTA: 0.139
AGGACCAA: -0.14
AGTTACGC: -0.105
AATCCCCC: -0.0828
ACTAAGAT: 0.125
CGCAATTC: 0.00344
AAAACTGG: 0.0394

Study 5
Target: UBE2L3 UBC core domain (UniProt P68036)
Sequence of UniProt P68036 (whole entry, looked up): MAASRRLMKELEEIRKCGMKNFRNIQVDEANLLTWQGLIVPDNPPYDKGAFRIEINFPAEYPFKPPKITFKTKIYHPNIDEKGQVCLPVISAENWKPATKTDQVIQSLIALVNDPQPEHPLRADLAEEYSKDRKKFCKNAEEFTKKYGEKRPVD
Method: yeast two-hybrid
Sample: yeast
Setting: mostly zero background
Baseline: not given
Direction: higher = stronger interaction
Endpoint: lacZ reporter activity
B1: UBE4B RING domain (UniProt O95155); chain KNARAEIDYSDAPDEFRDPLMDTLMTDPVRLPSGTIMDRSIILRHLLNSPTDPFNRQTLTESMLEPVPELKEQIQAWMREKQNSDH
B2: CBLL1 RING domain (UniProt Q75N03); chain GEKDDTPVHFCDKCGLPIKIYGRMIPCKHVFCYDCAILHEKKGDKMCPGCSDPVQRIEQCT
B3: PJA2 RING domain (UniProt O43164); chain DHTAIGQEQCCPICCSEYIKDDIATELPCHHFFHKPCVSIWLQKSGTCPVCRRHFPPAVIEA
B4: TRIM34 RING domain (UniProt Q9BYJ4); chain ILLNVQEEVTCPICLELLTEPLSLDCGHSLCRACITVSNKEAVTSMGGKSSCPVCGISYSFEHLQA
B5: ARIH1 RING domain (UniProt Q9Y4X5); chain NTRSSAQDMPCQICYLNYPNSYFTGLECGHKFCMQCWSEYLTTKIMEEGMGQTISCPAHGCDILVDDNTVM
B6: TRIM68 RING domain (UniProt Q6AZZ1); chain LVEAIVEEVACPICMTFLREPMSIDCGHSFCHSCLSGLWEIPGESQNWGYTCPLCRAPVQPRNLRP
B7: NHLRC1 RING domain (UniProt Q6VVB1); chain MREAEISLLECKVCFEKFGHRQQRRPRNLSCGHVVCLACVAALAHPRTLALECPFCRRACRGCDTSD
B1 (UBE4B RING domain): 0
KITELNPHLMCALCGGYFIDATTIVECLHSFCKTCIVRYLETNKYCPMCDVQVHKTRPLL (PCGF2 RING domain (UniProt P35227)): 0
B2 (CBLL1 RING domain): 0
B3 (PJA2 RING domain): 0
B4 (TRIM34 RING domain): 0
B5 (ARIH1 RING domain): 0
B6 (TRIM68 RING domain): 0
B7 (NHLRC1 RING domain): 0

Study 6
Target: RING finger protein unkempt homolog, zinc fingers 1-6, GST-SBP tag (UNK, Homo sapiens, UniProt Q9C0B0, residues 30-357)
Sequence of UniProt Q9C0B0 (30-357, looked up): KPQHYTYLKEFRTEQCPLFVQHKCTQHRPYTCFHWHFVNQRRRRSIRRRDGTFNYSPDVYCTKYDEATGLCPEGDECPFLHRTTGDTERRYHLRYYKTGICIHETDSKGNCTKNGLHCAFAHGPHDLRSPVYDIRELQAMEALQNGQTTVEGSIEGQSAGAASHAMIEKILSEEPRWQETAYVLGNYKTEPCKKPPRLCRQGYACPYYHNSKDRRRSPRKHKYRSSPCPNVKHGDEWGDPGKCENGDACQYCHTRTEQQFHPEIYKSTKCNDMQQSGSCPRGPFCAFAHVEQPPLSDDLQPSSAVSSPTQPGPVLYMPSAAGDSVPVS
Method: RNA Bind-n-Seq
Form: RNA
Sample: in vitro
Concentration: not given
Setting: RNA with constant flanks, human and mouse sites, ends assumed
Baseline: input RNA pool
Direction: higher = stronger binding
Endpoint: bound/input enrichment
Constant ends, left off below: GGGAGUUCUACAGUCCGACGAUC … CAACAGAGGAUUGAGCAUCA
UGAGUGCACACCCCCCUCUGUGUGUGUGUGUGUGUGUGUGUGUGUAUGUGUGUGUAUGUGUAGGUCUGUAGAUCUCUUAUCCCUUAGUGAAGGUGAAUACCAGAAGUAAACACAGCCUCU: 0.464 ratio
ACAAAUAUUUUUCAUGGUCACAUUUAUUAAAUGUUACUACAUUUCUGAAUUUUUGAAAAAUGUAUUUUAUCAUUAAAUGGCAUUAUUUUAAAGGGUGAAAAACUGACACAGUCAAUUCAG: 0.215 ratio
CUGGUAGACGACAAGCCUGGCCCUAGUCCGUUUUCUGAUCAGUCAGAACCCACAAUAACUACUAGUAGUCCUGUGGCUUUCAACCCAUUUCUCAUCCCAGGAGUGUCUCCUGGACUCAUC: 0.158 ratio
UCUGUUUUGUCAGCAAGAGGAUUUAAGACUCACCCAGGGCAAACACUGGGACCACUGUAAGAGCGCUGGAACAUUCUGCCUCUUGAGUGAAGGGGCCUUCUUUCUAGCCUCUAUGGCACU: 0.129 ratio
CUGAGCAAGAUGUACCCGCAGACGCGCCACCCGGCACCGCAUCAGCCUGCUCAACCCUUCAAAUUUACAAUUUCAGAAUCCUGUGAUCGGAUUAAGGAAGAGUUUCAGUUUUUACAGGCU: 0.425 ratio

Study 7
Target: Centromere-binding protein 1, full length, His-tagged (CBF1, Saccharomyces cerevisiae, UniProt P17106, residues 1-351)
Sequence of UniProt P17106 (whole entry, looked up): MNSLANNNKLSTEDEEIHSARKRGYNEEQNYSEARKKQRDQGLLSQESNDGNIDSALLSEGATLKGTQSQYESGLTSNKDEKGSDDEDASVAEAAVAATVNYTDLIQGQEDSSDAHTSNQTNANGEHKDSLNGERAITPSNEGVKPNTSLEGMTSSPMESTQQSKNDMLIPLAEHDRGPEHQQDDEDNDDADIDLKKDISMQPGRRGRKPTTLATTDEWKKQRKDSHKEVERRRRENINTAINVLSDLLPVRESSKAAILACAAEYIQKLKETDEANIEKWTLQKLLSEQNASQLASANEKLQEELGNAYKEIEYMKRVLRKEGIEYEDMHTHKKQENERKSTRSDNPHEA
Method: competition protein-binding microarray
Form: double-stranded DNA, one strand shown
Sample: in vitro
Concentration: 2 µM
Setting: whole 60-bp probe, lowest competitor level
Together with: Pho4 competitor, 0.05 µM
Direction: higher = stronger binding
Endpoint: fluorescence intensity
Constant ends, left off below: … GTCTTGATTCGCTTGACGCTGCTG
CGTCCTAGCGATTGAACGGTGGGTGCCATGAGGAAG: 69.6 a.u.
TGTTGCCAACCATGCTGCGTGCCGAATTAGGCCTAT: 66.1 a.u.
CACTGAGTACTTCCTCACCTGATCCAATCGATTTAA: 241 a.u.
CGTCCTAGTGATTGCTAGGTGGGTGCCATGAGGAAG: 76.2 a.u.
GCGTATTTGCCCCAACATGTGGTAGCCAAAACTTCA: 108 a.u.
AAATTACTAAGTTGGAAAGTGGGTGACGCCGTATGA: 63 a.u.
GTCAACCTGCTGCCTGGCGTGCTTTGACTCAGTACA: 70.8 a.u.
GTTACCCTCATAAAGCACGTGGCCGCTTATCGAGAA: 2050 a.u.
TTATCTCAATGGGTTTACGTGGGTATAGATTACGCT: 86.9 a.u.
CTTCTGTAAATTTGGGTTGTGGGTGGACGCGCCCCG: 91.5 a.u.
AAATTACTAAGTTGTGCAGTGGGTGACGCCGTATGA: 72 a.u.

Repeated from above (study 7):
CGTCCTAGCGATTGAACGGTGGGTGCCATGAGGAAG: 69.6 a.u.
TGTTGCCAACCATGCTGCGTGCCGAATTAGGCCTAT: 66.1 a.u.
CACTGAGTACTTCCTCACCTGATCCAATCGATTTAA: 241 a.u.
CGTCCTAGTGATTGCTAGGTGGGTGCCATGAGGAAG: 76.2 a.u.
